Measurements collected from several papers.
Each numbered part is a random draw from the data of one study; scales do not carry over between parts.

Sample 1
Species: mouse
Matrix: microsomes or S9
Concentration: 2 µM
Time: 0.5 h
Quantity: remaining compound
O=C(Cn1cncn1)c1ccc(-c2ccccc2)cc1: 2.92%
CN(C)c1ccc2oc(-c3cc(-c4cnn(C5CCNCC5)c4)cnc3N)nc2c1: 78.1%
Cc1cc(N2C(=O)CC(SCCN)C2=O)no1 (stereo not drawn): 28.7%
COc1cccc(C2CC(c3cccs3)=NN2S(C)(=O)=O)c1OC (stereo not drawn): 0.149%
Nc1ccc2c(c1)C(N(Cc1ncc[nH]1)c1ccc(Cl)cc1)C(O)CCO2 (stereo not drawn): 1.3%
Cc1cc(-c2[nH]c3[nH]c(=O)[nH]c(=O)c3c2-c2cc(C)sc2C)c(C)s1: 22.6%
Cn1cc(-c2cccc(CNc3nnc(C(C)(C)C)o3)c2)cn1: 7.78%

Sample 2
Target: Alpha-1B adrenergic receptor (ADRA1B, Homo sapiens, UniProt P35368)
Effect on: binding
Technique: radioligand binding
Concentration: 10 µM
Quantity: inhibition
O=C(Nc1cnc(Oc2ccc(F)cc2)nc1)N1CCc2ncccc2[C@@H]1c1ccc(F)cc1: -4.4%
Cc1c[nH]c2nccc(Oc3c(F)cc(Nc4cc(Cl)nc(N)n4)cc3F)c12: 17%
CN(C)C(=O)Cn1cc(-c2nc([C@@](C)(c3ccc(-c4cnc(N)nc4)cc3)C3CC3)no2)cn1: 2.84%
CC1=C(C#N)[C@@H](c2ccc3[nH]nc(C)c3c2)C(C#N)=C(c2ccc(Cl)cc2)N1: 21.7%
CC(=O)N1CCC(c2ccc(C(=O)NC(=N)N)cc2C(F)(F)F)CC1: -15.6%
CC(C)CC(=O)N1CCc2nc(-c3ccc(Br)cc3)nc(N(C)Cc3ccccc3)c2C1: 17.5%
O=C(Nc1cccnn1)N1CC(CC=Cc2cncc(Oc3ccc(C(F)(F)F)cn3)n2)C1: 0.27%
Cc1c(N2CCCC2)nc2ccc(Br)cc2c1C(=O)NC[C@H](CCC(=O)O)c1ccccc1Cl: -4.96%
CC(=O)c1c(NS(C)(=O)=O)c2cc(-c3ccc(Cl)cc3)c(-c3ccc(Cl)cc3Cl)nc2n(C)c1=O: 47.2%
CCOC(=O)c1cc2cc(-c3cc(C(=O)NCc4ccc(C(=O)O)cc4)nn3C)ccc2[nH]1: -1.29%
COc1nc2ccc([C@@](O)(c3ccccc3)C3CCN(C(C)=O)CC3)cc2c(Cl)c1Cc1ccc(-n2cccn2)cc1: -4.69%
CC(=O)Nc1c(F)cc(C(=O)N[C@H]2CC[C@H](O)CC2)cc1O[C@@H](C)c1ccccc1: -0.75%
O=C([C@H]1C[C@H](O)CN1c1ccc(Cl)cc1)N1CC2COCC(C1)N2Cc1ccc(Cl)cc1: 0.94%
CC(C)(O)c1cncc(-c2nc3ccc(F)cc3n2C2CC2)c1: 23.8%
Cc1nc(N2CC[C@@H](O)C2)ncc1-c1cc(C(F)(F)F)cc2[nH]ncc12: 15.9%
CN([C@@H]1CCc2c(CC(=O)O)c3cc(S(C)(=O)=O)ccc3n2C1)S(=O)(=O)c1ccc(F)cc1: -10.6%
Cc1cc(-n2nc(Cc3cc(F)cc(C(F)(F)F)c3)nc2C)ccc1C(N)=O: 6.84%
COCc1nc2cnc3cc(-c4c(C)noc4C)c(OC[C@H]4CCNC4)cc3c2n1[C@H](C)c1ccccc1: 4.2%

Sample 3
SMILES: CN(C)C[C@H]1CCn2c(c(C3=C(c4cn(C)c5ccccc45)C(=O)NC3=O)c3ccccc32)C1
Effect on: enzyme activity
Mode: inhibitor
Concentration: 0.5 µM
Relative to: control
Quantity: remaining activity
Tyrosine-protein kinase TXK (TXK, Homo sapiens, UniProt P42681): 103%
Dual specificity protein kinase CLK3 (CLK3, Homo sapiens, UniProt P49761): 94.7%
Serine/threonine-protein kinase DCLK2 (DCLK2, Homo sapiens, UniProt Q8N568): 97.8%
Serine/threonine-protein kinase tousled-like 2 (TLK2, Homo sapiens, UniProt Q86UE8): 88.4%
Serine/threonine-protein kinase MRCK beta (CDC42BPB, Homo sapiens, UniProt Q9Y5S2): 103%
Ribosomal protein S6 kinase alpha-4 (RPS6KA4, Homo sapiens, UniProt O75676): 33.3%
Mitogen-activated protein kinase 1 (MAPK1, Homo sapiens, UniProt P28482): 101%
Misshapen-like kinase 1 (MINK1, Homo sapiens, UniProt Q8N4C8): 97.8%
Vascular endothelial growth factor receptor 2 (KDR, Homo sapiens, UniProt P35968): 101%
Rho-associated protein kinase 1 (ROCK1, Homo sapiens, UniProt Q13464): 106%
G protein-coupled receptor kinase 4 (GRK4, Homo sapiens, UniProt P32298): 76.4%
Mitogen-activated protein kinase 14 (MAPK14, Homo sapiens, UniProt Q16539): 108%
Discoidin domain-containing receptor 2 (DDR2, Homo sapiens, UniProt Q16832): 96%
RAC-beta serine/threonine-protein kinase (AKT2, Homo sapiens, UniProt P31751): 92.6%
Dual specificity protein kinase CLK4 (CLK4, Homo sapiens, UniProt Q9HAZ1): 111%
Cyclin-dependent kinase 1, with cyclin A (CDK1, Homo sapiens, UniProt P06493): 67.8%
Dual specificity mitogen-activated protein kinase kinase 1 (MAP2K1, Homo sapiens, UniProt Q02750): 98.8%
Myosin-IIIb (MYO3B, Homo sapiens, UniProt Q8WXR4): 87.9%

Sample 4
Cell line: HaCaT
Concentration: 100 µM
Time: 18 h
Quantity: viability
C=CCc1ccc(O)c(-c2cc(CC=C)ccc2O)c1: 17.8%
CC[C@H]1OC(=O)[C@@](C)(F)C(=O)[C@H](C)[C@@H](O[C@@H]2O[C@H](C)C[C@H](N(C)C)[C@H]2O)[C@](C)(OC)C[C@@H](C)C(=O)[C@H](C)[C@H]2N(CCCCn3cc(-c4cccc(N)c4)nn3)C(=O)O[C@]12C: 26.4%
CCOC(=O)c1c(CSc2ccccc2)n(C)c2cc(Br)c(O)c(CN(C)C)c12: 23.9%
CCOC(=O)C1=C(COCCN)NC(C)=C(C(=O)OC)[C@@H]1c1ccccc1Cl: 18.5%
Cc1ccc(Nc2nccc(N(C)c3ccc4c(C)n(C)nc4c3)n2)cc1S(N)(=O)=O: 22.3%
CC(C)(F)C[C@H](N[C@@H](c1ccc(-c2ccc(S(C)(=O)=O)cc2)cc1)C(F)(F)F)C(=O)NC1(C#N)CC1: 79.6%
CCN1CCN(Cc2ccc(Nc3ncc(F)c(-c4cc(F)c5nc(C)n(C(C)C)c5c4)n3)nc2)CC1: 108%
CCN[C@@H]1C[C@H](N)[C@@H](O[C@H]2OC(CN)=CC[C@H]2N)[C@H](O)[C@H]1O[C@H]1OC[C@](C)(O)[C@H](NC)[C@H]1O: 112%

Some of these lines once more (sample 2):
COCc1nc2cnc3cc(-c4c(C)noc4C)c(OC[C@H]4CCNC4)cc3c2n1[C@H](C)c1ccccc1: 4.2%
Cc1c(N2CCCC2)nc2ccc(Br)cc2c1C(=O)NC[C@H](CCC(=O)O)c1ccccc1Cl: -4.96%
CN([C@@H]1CCc2c(CC(=O)O)c3cc(S(C)(=O)=O)ccc3n2C1)S(=O)(=O)c1ccc(F)cc1: -10.6%
